Experimental data from different studies.
Compare with care: the assays were run in different laboratories. ± gives the spread as reported.

SMILES	organism	assay	test system	setting	how to read	endpoint	value
CNC(=O)c1c(N(C)N=O)ncn1C	Salmonella typhimurium	plate incorporation	TA100, water	50 µg/plate, without S9		revertant colonies per plate	196 ± 6
O=[N+]([O-])c1ccc(N2CCC(NCCC(O)c3ccc(F)c4ccccc34)CC2)c(C(F)(F)F)c1 (centres unmarked)	Salmonella typhimurium	genotoxicity, SOS/umu test	TA1535/pSK1002	0.002 mg/mL, 4 h, with S9, full range		induction factor	1.89
CC(=O)N1CCC(C(=O)N2CCN3C(=O)c4cc(-c5ccccc5)ccc4NC(=O)C3C2)CC1 (centres unmarked)	Salmonella typhimurium		TA100	500 µg/plate, without S9		revertants per plate	104
CC1(COc2ccc3c(c2)ncn3-c2ccc3cccc(N4CCC(N)CC4)c3n2)COC1	human coronavirus OC43	virus-induced cell killing	MRC-5	screen		maximum inhibition	11.7%
CN(N=O)c1ccc(F)cc1	Salmonella typhimurium	mutagenicity, Ames plate incorporation	TA100	1500 µg/plate, 3 d, without S9, methanol		revertant colonies per plate	165 ± 28
O=[N+]([O-])c1ccc(N2CCN(CCC(O)c3ccc(F)cc3)CC2)c(C(F)(F)F)c1 (centres unmarked)	Salmonella typhimurium	genotoxicity, SOS/umu test	TA1535/pSK1002	0.016 mg/mL, 4 h, with S9, full range		induction factor	1.1
O=c1oc2ccccc2c(O)c1Cc1c(O)c2ccccc2oc1=O	human coronavirus OC43	virus-induced cell killing	MRC-5	screen		maximum inhibition	3.57%
COc1cccc(-c2n[nH]c(SCc3ccccn3)n2)c1OC	Salmonella typhimurium	Ames test, preincubation	TA1535	1.0 mg/plate, with rat liver S9		revertant colonies per plate	11
O=NN1CCN(C2CCCC2)CC1	Salmonella typhimurium	mutagenicity, Ames plate incorporation	TA98	500 µg/plate, 3 d, without S9, methanol		revertant colonies per plate	25.7 ± 11
Cc1cc(C(=O)NC(C)(C)COc2cccc3c2C(N)=NS(=O)(=O)N3)cc(C)n1	Salmonella typhimurium	Ames test, confirmatory	TA1535	100 µg/plate, with: rat liver S9	reference: solvent control	revertant ratio	0.8
Fc1ccc(C2=CCNCC2)cc1	Salmonella typhimurium	SOS/umu test	TA1535/pSK1002	0.016 mg/mL, 4 h, without S9, full range		survival	99.5%
N#C[C@@]1(n2ccc(N)nc2=O)O[C@H](CO)[C@@H](O)[C@H]1O	Salmonella typhimurium		TA100	600 nM, without S9	reference: control	viability	106%
OC(CCN1CC=C(c2ccc(F)cc2)CC1)c1ccc(F)c2ccccc12 (centres unmarked)	Salmonella typhimurium	SOS/umu test	TA1535/pSK1002	0.001 mg/mL, 4 h, without S9 activation		survival	103%
CC(C)N(N=O)C(C)C	Salmonella typhimurium	mutagenicity, Ames plate incorporation	TA1537	150 µg/plate, without S9, methanol		revertant colonies per plate	12.3 ± 4
